Measured values collected from several papers.
Compare with care: the assays were run in different laboratories.
TEK: Angiopoietin-1 receptor (TEK, Homo sapiens, UniProt Q02763)
Sequence of UniProt Q02763 (whole entry, unmodified, looked up): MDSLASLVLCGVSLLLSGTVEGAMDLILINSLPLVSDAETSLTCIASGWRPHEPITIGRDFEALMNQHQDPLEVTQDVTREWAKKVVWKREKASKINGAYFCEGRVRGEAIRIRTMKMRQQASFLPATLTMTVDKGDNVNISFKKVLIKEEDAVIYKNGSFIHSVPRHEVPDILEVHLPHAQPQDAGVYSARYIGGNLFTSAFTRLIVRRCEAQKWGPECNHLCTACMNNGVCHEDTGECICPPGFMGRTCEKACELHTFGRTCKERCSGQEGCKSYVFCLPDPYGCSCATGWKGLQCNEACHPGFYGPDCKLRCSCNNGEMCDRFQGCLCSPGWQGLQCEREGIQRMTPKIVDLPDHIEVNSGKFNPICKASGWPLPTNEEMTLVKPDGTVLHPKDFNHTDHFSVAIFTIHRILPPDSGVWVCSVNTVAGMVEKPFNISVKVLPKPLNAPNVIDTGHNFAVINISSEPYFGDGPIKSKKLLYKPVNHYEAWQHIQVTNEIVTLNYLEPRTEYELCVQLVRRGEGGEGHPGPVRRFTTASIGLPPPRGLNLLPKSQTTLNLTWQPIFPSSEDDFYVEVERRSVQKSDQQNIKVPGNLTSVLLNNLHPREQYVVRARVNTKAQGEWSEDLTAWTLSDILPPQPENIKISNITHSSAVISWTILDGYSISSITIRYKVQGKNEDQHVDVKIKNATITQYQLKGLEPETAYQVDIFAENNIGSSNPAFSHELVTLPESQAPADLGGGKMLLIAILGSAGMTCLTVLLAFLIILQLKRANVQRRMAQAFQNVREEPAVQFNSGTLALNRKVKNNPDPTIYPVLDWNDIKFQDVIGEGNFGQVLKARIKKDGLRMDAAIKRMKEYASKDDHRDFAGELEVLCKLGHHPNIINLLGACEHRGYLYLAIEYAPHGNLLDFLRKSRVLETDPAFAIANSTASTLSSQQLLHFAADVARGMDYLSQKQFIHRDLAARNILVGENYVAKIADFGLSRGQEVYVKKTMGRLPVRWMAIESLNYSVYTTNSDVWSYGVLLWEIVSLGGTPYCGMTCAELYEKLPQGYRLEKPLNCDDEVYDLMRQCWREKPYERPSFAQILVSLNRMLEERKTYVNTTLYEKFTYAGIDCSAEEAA
TEK Y897S: Angiopoietin-1 receptor (TEK, Homo sapiens, UniProt Q02763, Y897S)

Compound = C[C@H](NCc1ccc(-c2ccc(C(F)(F)F)cc2)cc1)C(N)=O; target = TEK; assay = cell-free assay, competition with immobilised ligand; setting = 1 µM; measurement = inhibition; result = 5%
Compound = CCn1nc(Cl)c2c1-c1cnc(N)c(c1)O[C@H](C)c1cc(F)ccc1-c1nn(C)cc1C2; target = TEK; assay = kinase activity, inhibitor; how to read = relative to: IC50 TEK over IC50 ALK; measurement = selectivity ratio; result = 162 fold
Compound = CC(C)[C@H]1NC(=O)C[C@H]2/C=C/CCSSC[C@@H](NC1=O)C(=O)N[C@H](Cc1cccc3ccccc13)C(=O)NCC(=O)O2; target = TEK; assay = enzyme activity, inhibitor; setting = 10 µM; measurement = inhibition; result = 7.7%
Compound = CCOC(=O)[C@@H]1Cc2c(cc([N+](=O)[O-])cc2[N+](=O)[O-])[C@H](O)[C@]12C(=O)Nc1ccc(Br)cc12; target = TEK; assay = binding, competition with immobilised ligand; setting = 0.1 µM; measurement = remaining binding; result = 98%
Compound = Nc1ccc(/C=C/C(=O)N2CCc3c(oc4c(-c5ccc(F)cc5)cc(-c5ccc(C(=O)N6CCC(F)(F)CC6)cn5)cc34)C2)cn1; target = TEK; assay = binding, competition with immobilised ligand; setting = 1 µM; measurement = remaining binding; result = 81%
Compound = O=C1NC(=O)c2c1c1cc(F)c[n+]3c1c1c2c2cc(O)ccc2[n]1[Ru-4]312([N]=C=S)[S+]3CC[S+]1CC[S+]2CC3 (centres unmarked); target = TEK Y897S; assay = enzyme activity; setting = 100 nM, human enzyme, together with: 10 µM ATP; how to read = relative to: untreated; measurement = remaining activity; result = 100%
Compound = CS(C)(=O)=Nc1ccc(-c2ccc(-c3nc4cc(O[C@@H]5CO[C@H]6[C@@H]5OC[C@H]6O)[nH]c4cc3F)cc2)cc1; target = TEK Y897S; assay = enzyme activity, inhibitor; setting = 10 µM; measurement = inhibition; result = -24%
Compound = N[C@H](C(=O)N1CCCC1)C1CCN(c2nccc3c(-c4ncc(Cl)cc4Cl)cccc23)CC1; target = TEK; assay = kinase activity, inhibitor; setting = 10 µM, together with: ATP 1 mM; measurement = inhibition; result = 7.1%
